Measured values from different studies.
A part holds a random share of what one study measured. Positions count from the first letter of the parent shown.

Block 1
Target: RING finger protein unkempt homolog, zinc fingers 1-6, GST-SBP tag (UNK, Homo sapiens, UniProt Q9C0B0, residues 30-357)
Technique: RNA Bind-n-Seq
Form: RNA
Sample: in vitro
Concentration: not given
Setting: RNA with constant flanks, ends assumed
Reference: input RNA pool
Reading: higher = stronger binding
Quantity: bound/input enrichment
Constant ends, left off below: GGGAGUUCUACAGUCCGACGAUC … CAACAGAGGAUUGAGCAUCA
Construct (chain): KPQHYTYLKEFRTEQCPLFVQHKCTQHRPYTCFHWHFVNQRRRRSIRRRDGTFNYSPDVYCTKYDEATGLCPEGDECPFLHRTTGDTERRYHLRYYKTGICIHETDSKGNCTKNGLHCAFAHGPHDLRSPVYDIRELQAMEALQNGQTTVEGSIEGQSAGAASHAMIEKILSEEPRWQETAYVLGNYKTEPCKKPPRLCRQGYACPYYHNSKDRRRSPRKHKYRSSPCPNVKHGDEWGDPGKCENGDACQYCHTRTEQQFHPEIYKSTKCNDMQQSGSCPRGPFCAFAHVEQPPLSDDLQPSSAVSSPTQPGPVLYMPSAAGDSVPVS
AUCACCAUGUUGGAAGCAGCACUGGGACUUGAGCGAGCUCACAUGGGAAUGUUUACUGAAUCCGCUAUUCUAUACUCUAAAUUUAAGCCUCAGAAAAUGAGGGAGCACCUGGAGCUGUUC: 0.227 ratio
GCUCUUGCCUGCAAGUUUAGCUUGUGUUAAGGCAUUUGGGGGGACCAUUUAACUUACUGCCCGUUUGGGAUGUCUUUGUGAGAGUAGGGUUGGCACCAAUGCAGUAUGGAAGGCUAGGAG: 0.349 ratio
UUUUGUAUUGUACAUAAAAUUACCUAGAAAUGCACUUUUCCUCCAAAAUGUAGGUUCGUGAACCGACUUAGCAUGAUGAAGCUGUCUUUACAGUGAAUGCUUACCCUGUGUAGAGAAAGC: 1.61 ratio
AGGACUUCAUUCCUCCAUGUUUUCUUCCCUUAUCUUACUGUCAUUGUCCUAAAACCUUAUUUCCGAAAAUUGAUCAAGUAACAUGUUGCAUGUGGCUUACUCUGGAUAUAUCUAAGCCCU: 0.559 ratio
UAAACAUUGUAUGCAUUUUGAUUUUUCCUACUUUAAGAAAAUAAAAUAAUUUAAUUUUACAUCCGAUUCCACGUUAGAUUUGGUUUGAAAAACUAAAAUUUCAGAUUUCUGAGGAUAUAC: 0.666 ratio
AUGGUGCAAAAUGUGAGCUUCAAGUAUACAAAAGAUGGGCCUUGCAUCUACAAUAAUCCCGAAUUUGGAAUUGACCUUGACACACGAGUGGCUCUGGUAGGGCCCAAUGGAGCAGGGAAG: 0.208 ratio
CCGACGCGCGUCUGUGGAGAAGCGGCUUGGUCGGGGGUGGUCUCGUGGGGUCCUGCCUGUUCCGUCGCUUUCAGGGUUCUUGAGCCCCUUCACGACCGUCACCAUGGAAGUGUCACCAUU: 0.0592 ratio

Block 2
Target: Histone acetyltransferase KAT6A, winged helix 2, GST fusion (KAT6A, Homo sapiens, UniProt Q92794, residues 85-181)
Technique: protein binding microarray
Form: double-stranded DNA, one strand shown
Sample: in vitro
Concentration: not given
Setting: 8-mer, flanks averaged, mean of 2 arrays, mostly near background
Reference: not given
Reading: higher = stronger binding
Quantity: E-score
Construct (chain): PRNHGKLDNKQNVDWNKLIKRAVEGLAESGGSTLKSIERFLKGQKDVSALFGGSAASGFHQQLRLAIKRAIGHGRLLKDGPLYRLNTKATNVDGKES
ACCACCAG: 0.0373
AGGGCCCA: 0.0302
AGCCGACC: -0.0465
AGCTGGAT: 0.0393
ACGGTTTG: 0.0335
CGCCAGCC: 0.178
ACGCTGAA: -0.112

Block 3
Target: CCNA1, cyclin fold, Cln2 fusion (human)
Technique: yeast growth competition, sequencing
Sample: yeast
Setting: weak parent motif
Reference: not given
Reading: higher = stronger binding
Quantity: normalised enrichment score
Parent: DNAH7 docking peptide (human); HELFQRLDFDNDG; partner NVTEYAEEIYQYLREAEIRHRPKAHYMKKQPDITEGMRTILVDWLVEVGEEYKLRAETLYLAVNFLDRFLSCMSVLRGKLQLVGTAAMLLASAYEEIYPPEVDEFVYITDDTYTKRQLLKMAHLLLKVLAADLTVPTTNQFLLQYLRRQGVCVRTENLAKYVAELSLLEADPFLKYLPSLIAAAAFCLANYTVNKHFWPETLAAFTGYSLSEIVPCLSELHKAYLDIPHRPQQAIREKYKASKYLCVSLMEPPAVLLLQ
HEAFQRLDFDNDG [L3A]: -0.145
AELFQRLDFDNDG [H1A]: -0.119
HALFQRLDFDNDG [E2A]: -0.0861

Further values, each from its own experiment
PhoQ, residues 284 288 289 292 302 303 DDMDFR  fold induction (PhoP, residues 12 14 15 18 19 LYHSL (Escherichia coli, UniProt P23836); Sort-seq, refers to: YFP reporter; E. coli; PhoQ-PhoP variant library, added: 10 µM Mg2+; reference: high Mg2+ state, higher = stronger signaling): 0.568

For quick reference, copied from above (block 1):
CCGACGCGCGUCUGUGGAGAAGCGGCUUGGUCGGGGGUGGUCUCGUGGGGUCCUGCCUGUUCCGUCGCUUUCAGGGUUCUUGAGCCCCUUCACGACCGUCACCAUGGAAGUGUCACCAUU: 0.0592 ratio
AUGGUGCAAAAUGUGAGCUUCAAGUAUACAAAAGAUGGGCCUUGCAUCUACAAUAAUCCCGAAUUUGGAAUUGACCUUGACACACGAGUGGCUCUGGUAGGGCCCAAUGGAGCAGGGAAG: 0.208 ratio
AGGACUUCAUUCCUCCAUGUUUUCUUCCCUUAUCUUACUGUCAUUGUCCUAAAACCUUAUUUCCGAAAAUUGAUCAAGUAACAUGUUGCAUGUGGCUUACUCUGGAUAUAUCUAAGCCCU: 0.559 ratio
